Experimental data collected from several papers.
Matrix: plasma

SMILES | test system | setting | quantity | result
Cc1ccc(CNC(=O)Cc2ccc(-c3ccc(OCCN4CCOCC4)cc3)cn2)cc1 | CD-1 mouse | intravenous, 2 mg/kg | Vd | 1.89 L/kg
O=C(OCc1cccc(O)c1O)c1ccc(O)c(CO)c1 | male CD-1 mouse | intravenous, 10 mg/kg | Vd | 0.343 L/kg
COC1C=COC2(C)Oc3c(C)c(O)c4c(c3C2=O)C2=NC3(CCN(CC(C)C)CC3)NC2=C(NC(=O)C(C)=CC=CC(C)C(O)C(C)C(O)C(C)C(OC(=O)Nc2cscn2)C1C)C4=O (stereo not shown) | female CD-1 mouse | intravenous, 5 mg/kg | Vd | 1.5 L/kg
O=C1OC2(c3ccccc31)c1cc(I)c(O)c(I)c1Oc1c2cc(I)c(O)c1I | female C57BL/6 mouse | oral, 100 mg/kg | Vd/F | 504 L/kg
COc1ccccc1NC(=O)OC1C(C)C(OC)C=COC2(C)Oc3c(C)c(O)c4c(c3C2=O)C2=NC3(CCN(CC(C)C)CC3)NC2=C(NC(=O)C(C)=CC=CC(C)C(O)C(C)C(O)C1C)C4=O (stereo not shown) | female CD-1 mouse | intravenous, 5 mg/kg | Vd | 4.5 L/kg
COC(=O)c1ccc2c(c1)NC(=O)/C2=C(\Nc1ccc2c(c1)CCN2C(=O)CN1CCOCC1)c1ccccc1 | CD-1 mouse | intravenous, 10 mg/kg | Vd | 1.51 L/kg
Cc1cc(C)c(S(=O)(=O)N(CC(=O)O)c2ccc(Nc3ccnc(N4CCCC4)n3)cc2)c(C)c1 | nude mouse | intraperitoneal, 100 mg/kg, single dose | Vd/F | 15.9 L/kg
C=C(C)C(=O)Nc1ccc(-c2c(-c3ccc(Oc4nccc(C)n4)cc3)c3c(N)ncnc3n2C)cc1 | nude mouse | intravenous | Vd | 0.36 L/kg
COC1C=COC2(C)Oc3c(C)c(O)c4c(c3C2=O)C2=NC3(CCN(CC(C)C)CC3)NC2=C(NC(=O)C(C)=CC=CC(C)C(O)C(C)C(O)C(C)C(OC(=O)Nc2cccnn2)C1C)C4=O (stereo not shown) | female CD-1 mouse | intravenous, 5 mg/kg | Vd | 0.5 L/kg
Cc1ccc2oc(-c3c4c(N)n[nH]c(=O)c4nn3-c3ccc(NC(=O)/C=C/CN(C)C)cc3)c(C)c2c1 | mouse | intravenous, 1 mg/kg | Vd | 4.82 L/kg
Cc1cc(O)cc(O)c1C(=O)c1c2c3c(c(O)cc(C)c3oc1=O)C(=O)c1c(O)cc(O)cc1-2 | male Kunming mouse | intraperitoneal, 15 mg/kg | Vd/F | 0.328 L/kg
Nc1ccn(C[C@@H](CO)OCP(=O)(O)OCCCS(=O)(=O)CCCCCCCCCCC2CCC2)c(=O)n1 | mouse | intravenous, 3 mg/kg, single dose | Vd | 2.8 L/kg
CCOc1c(C(C)(C)O)sc2cnc(Nc3ccc(N4CCC(N5CC6(COC6)C5)CC4)cc3OC)nc12 | male C57BL/6 mouse | intravenous, 3 mg/kg | Vd | 8.63 L/kg

For quick reference, copied from above:
SMILES | test system | setting | quantity | result
C=C(C)C(=O)Nc1ccc(-c2c(-c3ccc(Oc4nccc(C)n4)cc3)c3c(N)ncnc3n2C)cc1 | nude mouse | intravenous | Vd | 0.36 L/kg
Nc1ccn(C[C@@H](CO)OCP(=O)(O)OCCCS(=O)(=O)CCCCCCCCCCC2CCC2)c(=O)n1 | mouse | intravenous, 3 mg/kg, single dose | Vd | 2.8 L/kg
